Measured values from different studies.
A part holds a random share of what one study measured. Positions count from the first letter of the parent shown.

Sample 1 — method: competition protein-binding microarray; form: double-stranded DNA, one strand shown; matrix: in vitro; concentration: 2 µM; together with: Cbf1 competitor, 0.05 µM; direction: higher = stronger binding; all sequences stand within: … GTCTTGATTCGCTTGACGCTGCTG
Target: Phosphate system positive regulatory protein PHO4, full length, GST-tagged (PHO4, Saccharomyces cerevisiae, UniProt P07270, residues 1-312)
Setting: whole 60-bp probe, lowest competitor level
Target sequence (chain): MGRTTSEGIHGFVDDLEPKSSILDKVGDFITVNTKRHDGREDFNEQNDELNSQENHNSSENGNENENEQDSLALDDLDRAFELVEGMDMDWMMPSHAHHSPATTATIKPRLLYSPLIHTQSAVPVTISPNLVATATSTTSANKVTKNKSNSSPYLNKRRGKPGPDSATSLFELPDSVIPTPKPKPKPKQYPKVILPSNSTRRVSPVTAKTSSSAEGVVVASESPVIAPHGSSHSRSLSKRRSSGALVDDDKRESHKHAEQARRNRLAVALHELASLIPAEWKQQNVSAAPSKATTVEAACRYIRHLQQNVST
Sequence	fluorescence intensity [a.u.]
GCCCGGTCAAGTACTCACGTTCTGCTGTAGGTGACG	8600
TTTAGGTAATTTGACACCGTGCCGAAATGGCTTGGC	8640
TCTATCCTATTTTAAAACGTGAATATTCCAAGATGA	9280
TCTCGATCTTCCCATCACGCATAGGGTTTTGGGCTT	6080
TGTACCACCTCTTTGAACGTGACAAAGAATGGTTAC	8810
TGCGCAACAACTTGGCCCGTGGGTGTATGTCTAGAA	8820
TTGTTCATGAGTGAACATGTGGAAGACGAAAAACCA	8050
AGCAAGTTTTACCATCACCTGCACAACCACAACAGC	5970
AAGACGGCACTATTCCATGTGACGGATTCCCATCTG	6240
TGATAACTTCCGAGTCACGTGTGAAGGAATTCTTAA	13400
CGAACGTAGCTTCGTCACATGCTATGCTAGCAACTA	7920
CTTTCCCGATCTTGGCTCGTGGGTGTAGCACATTTG	12500
CTAACGAAGGTTTGGCATGTGGGTGACAAGCCAAGT	11900
CTTTCCCGATCTTGACACGTGGGTGTAGCACATTTG	17200
CCTGCAAAGCAATGCAACGTGGGCCTGTGAGGATGA	13500
GCTCGCAGGGTCAACCACGTGCTGGGGAGAGGAGCC	15300
TGATAATGCAATAGCCTTTGATGACAATGTTAGTAA	3410

Sample 2 — target: ATF1, bZIP domain (human); method: DHFR protein complementation; matrix: yeast; relative to: wild-type JUN-FOS pair; direction: higher = stronger binding
Setting: single substitutions, most at no-binding floor
Starting sequence: JUN, bZIP domain (human); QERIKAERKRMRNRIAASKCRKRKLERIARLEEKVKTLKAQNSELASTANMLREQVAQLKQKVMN; partner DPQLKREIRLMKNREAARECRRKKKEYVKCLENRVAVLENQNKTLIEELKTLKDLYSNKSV
Variant	binding fitness
L31T	-1.47 natural log
E32Y	-1.51 natural log
K36P	-1.5 natural log
L38V	-1.52 natural log
Q41S	-1.41 natural log
E44K	-1.49 natural log
I28T	-1.43 natural log
K39D	-1.44 natural log
A29F	-1.49 natural log
A49T	-1.58 natural log
S43W	-1.52 natural log
S43T	-1.48 natural log
R53S	-1.53 natural log
L38H	-1.52 natural log
K39M	-1.45 natural log
L31I	-1.48 natural log
A40K	-1.54 natural log
E44P	-1.55 natural log
A29Y	-1.41 natural log
K36L	-1.47 natural log
L45V	-1.52 natural log
V56L	-1.51 natural log
T37N	-1.53 natural log
L38P	-1.53 natural log
T48Y	-1.56 natural log

Sample 3 — method: RNA Bind-n-Seq; form: RNA; matrix: in vitro; concentration: 20 nM; setting: 6-mer, flanks averaged, single round; together with: 150 mM KCl; relative to: input library; direction: higher = stronger binding
Target: TAR DNA-binding protein 43, full length, His tag (TARDBP, Homo sapiens, UniProt Q13148, residues 1-414)
Sequence	6-mer enrichment (R)
GAUGUC	0.775
GAAAUU	0.63
UAAUUC	0.595
GGCAUG	1.77
CGCUAU	0.616
GCACUC	0.674
CUAGUU	0.593
ACACGU	0.663
UGUCAA	0.65
GCGGUA	1.42
AACGCG	0.938
CCGGUG	1.33
CUGCUG	0.813
GAGAUA	0.856

Sample 4 — method: RNA Bind-n-Seq; form: RNA; matrix: in vitro; concentration: 365 nM; relative to: no-protein control; direction: higher = stronger binding
Target: RNA binding protein fox-1 homolog 2, RRM domain, GST-SBP tag (RBFOX2, Homo sapiens, UniProt O43251-10, residues 100-194)
Setting: natural RNA segment, single round, ends assumed
All sequences stand within: GGGAGUUCUACAGUCCGACGAUC … UGGAAUUCUCGGGUGCCAA
Target sequence (chain): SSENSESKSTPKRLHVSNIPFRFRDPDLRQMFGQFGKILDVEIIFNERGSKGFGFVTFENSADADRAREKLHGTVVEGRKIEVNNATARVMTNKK
Sequence	RBNS enrichment (R)
CUUUUUAACCUGGGCUUAGCCACCUGCUCUGUGAUCCAGGGCUUACCUUCUUUGGGCCUCGGCCUCCUAAUCUGGGUAAUGGGGAGGACUUCAUUGGCAUUGUUAGUCCC	0.425
CUCCACUCACCAGCUGUUGAGUCUGUGCGGAAGACAGGAUCUUAUUACUUCAAUGGCAGCAGCGAUCAAGAAAGUUCUCCAACCUUGAACAGCCAAAUGGAUUGACUACA	0.379
AAAAGUUUCUACUCAGAACUGGGGAAGGAGUGGAACUUAUGACUUGGGCCUCUAGGCUGUCUCUGUCCCCUCAGCUCCCCGACAUGCAUUUACUCUCUGCCGUGGGUCUG	0.372
CCCUAAUCCCUCCCCAGCGGCAAGCCCCUCUUUUCAGAGUGGGCAGAGGGUUGCCUAUGGUGGGCACUAGGAAUGAGGUCCCCUGCCUCGAUGCGGGUCCUAGGAGAAAA	0.382
CAAGCAAAGGUCAUCACAGUGACCCAACCCAGACACUUCCCCAGCAGCCUCCCCAUACUCUGCUCCUGAUGUGGCAACCCUUGUCGGCUCCUGCCUUUGCCCCCCACUUU	0.356
GGGUUACUCCUCCUCCAAUGGGACUCAAGGACUUGACCUCCAGGAGUAGGCCCCUGGUCAGAAGUGCCAUCUCACCAGUGGUCUUCAUUCUUCCUCAUUCAUUCUUUAUC	0.393
GUACUCUGAAUGAAGAGCCUGUGCCUCCCUCUCUCCCCUAACAGUUUUAAGGAGAUACAAUUUACCUGCCACAAAAUUUACCCAUUUUAGGUUUAUACUUAGAUGGUUGU	0.609
CCCCACCUGGGUCAAGGGUUCAGUAUUUUAGUCUAAAACUUCAGAAAGUCAAGCAUCACUUAAGACAUGCCCAGGGCUCCAGCUUGCCCUCAGCAGUCCUUCAGGACUUC	0.883
CUAAUCCCAAGUCAAUGCGUGUAUCCCCUGCCAGGCUGCCUCAGCCUCCCUCCCCAUUACCCACUCUGUCCCCGGGGUUCGGAGGAAUGGGCGAGCAGAAAAACCUUAGG	0.932
CGGCCCUGUGCUUAAGACACUCCUGCUGCCCCGUCUGAGGGUGGCAAUUAAAGUUGCUUCACAUCCUCGCCUGCCUCUGGGUCUCUGUCUCCCUUGGCCUGGGCAGCCUG	0.305
CUACCUGAGGUACACUUUUAAACCUCAUCUUCUAUUUCUUCCCUCUCUUCUGCAAAUGAACAAAACAAAACAUAAAGGUGGUUGUUGUAAGCUAAGUAUAUUUGUGGAGG	0.507
UGAAUGGGAGGCCUUUCUAUAGUGGAGGCCUUUCCUUGAAGCCUAUGAACUGCAGGCCCCCUUUUGCCAUUGAUCUCAAAGCACUUGUCCUCAGGAUAGGGAAGAGCAGG	0.288

Sample 5 — method: protein binding microarray; form: double-stranded DNA, one strand shown; matrix: in vitro; concentration: not given; relative to: not given; direction: higher = stronger binding
Target: Histone acetyltransferase KAT6A, both winged helices, GST fusion (KAT6A, Homo sapiens, UniProt Q92794, residues 1-181)
Setting: 8-mer, flanks averaged, mean of 2 arrays, mostly near background
Target sequence (chain): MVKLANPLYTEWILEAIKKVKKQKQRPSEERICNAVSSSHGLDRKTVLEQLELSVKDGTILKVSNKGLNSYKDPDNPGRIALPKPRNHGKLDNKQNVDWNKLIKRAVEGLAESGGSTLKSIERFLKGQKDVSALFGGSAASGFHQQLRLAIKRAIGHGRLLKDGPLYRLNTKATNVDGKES
Sequence	E-score
CGATACAG	-0.0555
AGGGGATA	-0.241
GAGAGGGC	0.0164
ATCAGAAG	-0.0677
CATGGGGC	-0.1
AGCTGTTA	-0.0469
CCAGGAAC	-0.03
GCCACATA	-0.0432
GTCGTCAC	0.0357
AGTTGAAA	-0.105
AACTATCA	0.00307
TATTTGCA	-0.217
AAGCCATG	-0.285
GAACAAGC	0.0804
AGGTAATA	-0.0753
CGGTGTCA	0.145
AACCATCT	-0.0452
TCCTGCGA	-0.0439
TCAGATAA	-0.0935
ATCGAACG	0.113
TCATACAA	-0.00512
CTGTCGTC	-0.168
ATTTTACA	-0.0473
AAGGCCCG	0.192
AGATGATG	-0.0802

A few entries again (sample 4):
Sequence	RBNS enrichment (R)
CUUUUUAACCUGGGCUUAGCCACCUGCUCUGUGAUCCAGGGCUUACCUUCUUUGGGCCUCGGCCUCCUAAUCUGGGUAAUGGGGAGGACUUCAUUGGCAUUGUUAGUCCC	0.425
CUCCACUCACCAGCUGUUGAGUCUGUGCGGAAGACAGGAUCUUAUUACUUCAAUGGCAGCAGCGAUCAAGAAAGUUCUCCAACCUUGAACAGCCAAAUGGAUUGACUACA	0.379
AAAAGUUUCUACUCAGAACUGGGGAAGGAGUGGAACUUAUGACUUGGGCCUCUAGGCUGUCUCUGUCCCCUCAGCUCCCCGACAUGCAUUUACUCUCUGCCGUGGGUCUG	0.372
CCCUAAUCCCUCCCCAGCGGCAAGCCCCUCUUUUCAGAGUGGGCAGAGGGUUGCCUAUGGUGGGCACUAGGAAUGAGGUCCCCUGCCUCGAUGCGGGUCCUAGGAGAAAA	0.382
CAAGCAAAGGUCAUCACAGUGACCCAACCCAGACACUUCCCCAGCAGCCUCCCCAUACUCUGCUCCUGAUGUGGCAACCCUUGUCGGCUCCUGCCUUUGCCCCCCACUUU	0.356
GGGUUACUCCUCCUCCAAUGGGACUCAAGGACUUGACCUCCAGGAGUAGGCCCCUGGUCAGAAGUGCCAUCUCACCAGUGGUCUUCAUUCUUCCUCAUUCAUUCUUUAUC	0.393
GUACUCUGAAUGAAGAGCCUGUGCCUCCCUCUCUCCCCUAACAGUUUUAAGGAGAUACAAUUUACCUGCCACAAAAUUUACCCAUUUUAGGUUUAUACUUAGAUGGUUGU	0.609
CCCCACCUGGGUCAAGGGUUCAGUAUUUUAGUCUAAAACUUCAGAAAGUCAAGCAUCACUUAAGACAUGCCCAGGGCUCCAGCUUGCCCUCAGCAGUCCUUCAGGACUUC	0.883
CUAAUCCCAAGUCAAUGCGUGUAUCCCCUGCCAGGCUGCCUCAGCCUCCCUCCCCAUUACCCACUCUGUCCCCGGGGUUCGGAGGAAUGGGCGAGCAGAAAAACCUUAGG	0.932
CGGCCCUGUGCUUAAGACACUCCUGCUGCCCCGUCUGAGGGUGGCAAUUAAAGUUGCUUCACAUCCUCGCCUGCCUCUGGGUCUCUGUCUCCCUUGGCCUGGGCAGCCUG	0.305
CUACCUGAGGUACACUUUUAAACCUCAUCUUCUAUUUCUUCCCUCUCUUCUGCAAAUGAACAAAACAAAACAUAAAGGUGGUUGUUGUAAGCUAAGUAUAUUUGUGGAGG	0.507
UGAAUGGGAGGCCUUUCUAUAGUGGAGGCCUUUCCUUGAAGCCUAUGAACUGCAGGCCCCCUUUUGCCAUUGAUCUCAAAGCACUUGUCCUCAGGAUAGGGAAGAGCAGG	0.288
